Measurements of several laboratories.
Each numbered part is a random draw from the data of one study; scales do not carry over between parts. Substitutions count along the parent as printed.
Chain of UniProt Q9C0B0 (30-357, looked up): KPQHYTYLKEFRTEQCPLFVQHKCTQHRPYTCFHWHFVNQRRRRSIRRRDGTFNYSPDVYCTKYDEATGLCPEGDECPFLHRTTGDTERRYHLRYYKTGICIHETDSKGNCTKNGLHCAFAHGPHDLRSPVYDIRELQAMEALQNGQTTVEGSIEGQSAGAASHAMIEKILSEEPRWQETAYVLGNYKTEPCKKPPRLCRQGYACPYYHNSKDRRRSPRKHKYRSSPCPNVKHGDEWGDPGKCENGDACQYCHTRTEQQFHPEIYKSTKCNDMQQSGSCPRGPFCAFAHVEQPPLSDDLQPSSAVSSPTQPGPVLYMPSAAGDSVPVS

Sample 1
Target: CCND3, cyclin fold, Cln2 fusion (human)
Method: yeast growth competition, sequencing
Medium: yeast
Notes: strong parent motif
Baseline: not given
Reading: higher = stronger binding
Endpoint: normalised enrichment score
Parent: INSM1 docking peptide (human); PKAIRKLHFEDEV; partner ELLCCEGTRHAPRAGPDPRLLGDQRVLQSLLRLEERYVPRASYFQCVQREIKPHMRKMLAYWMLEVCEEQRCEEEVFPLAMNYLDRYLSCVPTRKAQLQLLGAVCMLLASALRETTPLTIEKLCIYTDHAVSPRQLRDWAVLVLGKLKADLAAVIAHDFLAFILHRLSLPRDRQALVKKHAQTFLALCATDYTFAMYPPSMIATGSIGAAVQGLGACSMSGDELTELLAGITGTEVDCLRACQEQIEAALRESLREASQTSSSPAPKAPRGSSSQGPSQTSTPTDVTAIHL
PKAIRKLHFEDVV [E12V]: 0.558
PKAIRKLHIEDEV [F9I]: 0.0175
PKAIRKLHFEDAV [E12A]: 1.07
PKAHRKLHFEDEV [I4H]: 0.2
PKAIRKLHFCDEV [E10C]: 0.569
PKAIRKLMFEDEV [H8M]: 1.06
PKAIRKCHFEDEV [L7C]: 0.218
PKAIRKLRFEDEV [H8R]: 0.433
PKAIEKLHFEDEV [R5E]: 0.118
PKAIVKLHFEDEV [R5V]: 0.0731
PKAIRKLHFEPEV [D11P]: 0.555
PKAIRKLHFEVEV [D11V]: 0.321
PKAIRKLNFEDEV [H8N]: 1.55
PKAIRKLHFECEV [D11C]: 0.431
PKAIRKLAFEDEV [H8A]: 0.514
PKAIRKLPFEDEV [H8P]: 0.377
PKAIRKSHFEDEV [L7S]: 0.342
PKAIRKLVFEDEV [H8V]: 1.94
PKAIPKLHFEDEV [R5P]: -0.142
PKAIRKLHFEFEV [D11F]: 0.548
PKAIRHLHFEDEV [K6H]: 1.05
PKAIRTLHFEDEV [K6T]: 0.974
PKAIRMLHFEDEV [K6M]: 0.882
PKAIRKLHFEDLV [E12L]: 0.795
PKFIRKLHFEDEV [A3F]: 0.462

Sample 2
Target: RNA binding protein fox-1 homolog 2, RRM domain, GST-SBP tag (RBFOX2, Homo sapiens, UniProt O43251-10, residues 100-194)
Method: RNA Bind-n-Seq
Form: RNA
Medium: in vitro
Tested at: 365 nM
Notes: natural RNA segment, single round, ends assumed
Baseline: no-protein control
Reading: higher = stronger binding
Endpoint: RBNS enrichment (R)
All sequences stand within: GGGAGUUCUACAGUCCGACGAUC … UGGAAUUCUCGGGUGCCAA
CCAUCUACCCUGUCACACUUCACCAGAAGGGAGAAGGUUGUUGCCAGUCACCAGGGAGCUCACUUUCCACUUGGAGACGCUUUGCUCUGCUUGUGCACCGCCAGCUUCUG: 0.525
AAACGGGCUGCCCUAGUCAAGCCCAGUCCCUUCAACAGUAUGUCUGAUGCACCACAGGCCCUCCCUACUGGAAGUGGGAACUUCAAAUGGAAAUUGGAGCCAUCUUUUAU: 0.711
AAAAAAGAUGAUUAAGAAGGAUGCUCCUACAACUGUAUCCUGACAGUUAAGUCACAGCUUAAUGUGUAGAUAUGAGCUGUUUACAGUGGUGACUAUAUAUAAUUGGGGAG: 0.57
GGACAGAAUCCCCGACUGCACUAUUGAGGGAGUUUCAGAAGAGAAGGAAGAGGUGCUGGAAGGAUGCUUUUGCAGUCAUGCAGCAAGGAAACGACCAGGGCUGUGAAGAU: 0.712
ACCAGACUUUUAGGGAGACUGGACAAACAUCAGGACUGGCUUUUAUAAGUAGGCAGGUAAUCUUCAUGGGGACUGAGGUGAUUUUCUUGUACGUUUUACGUUUUCCUAUU: 0.68
AAAUAUGUCUGACAGGAUUGGAAUCAGACUAUGUGAUUUGCUUGUAAAGAUUAGUUUCAGUGAGUCCCAGGGACUAAUUAAGGUUUAUUUUUAAAAGCGUCUGCCUUGGU: 1.07
ACGAAUGUACCGCCAGUAUUAUCAGCAGUCAACAAGCACCUUCCUCUCCACAGAAGCAGCUGGAAGAGAACUCGAGGGGCUGUGCUGCAGGCCUCCCCUCGAAAGACACU: 0.48
AGUUGACUGUAAGUGCUUCCCUGUCAUCCAUGUGCAAUUUCCCGACAUUCCACCUCCAUCUCUGCUUGUGUCCCUCACAUCAGCAUUAAUCUUUGUUUCCCUCACACUUA: 1.09
AGUAACUCACCUUUAAAACAACAGGCUCUGAUUUGCUGAAGAGGUUUGGUAUUUUUUAAGGUAUGUCUCCCUGUUUGCACUCAGGGUUAAAGUGUCAGACUAAAUUUUUA: 0.565
AAAGCUUCAUAAUAAUACAUUCUUACCUAAAGCUCACUGUCAUGAUGUUAGGUAUUUAAAUUCUUAAAGAUGUUGGGUUGUUUAUUAGUGGUAUUUUUAUGUUGUCUUAU: 0.583
CAGCAGCUGCAGACAUGUUUGGGAAUAUGAGAGCAUGUUCGCAGACCCACCAGGUUCUGUGUCCUAUGGGCUACACCUGGCUCCAGCAAGAAUGCCUGCCAUGGGCACUU: 1.44
UGUACUAGUCAUGGAUCUUUCUCUCCCUGGCAUGUGAAAGUCAGUCUUAGAGGAAGAGAUUCCACUUGCACGGCAACAGAGCCUUACGUUAAAUUUUCAGUCCAGUUAUG: 0.851

Sample 3
Target: Histone acetyltransferase KAT6A, winged helix 2, GST fusion (KAT6A, Homo sapiens, UniProt Q92794, residues 85-181)
Method: protein binding microarray
Form: double-stranded DNA, one strand shown
Medium: in vitro
Tested at: not given
Notes: 8-mer, flanks averaged, mean of 2 arrays, mostly near background
Baseline: not given
Reading: higher = stronger binding
Endpoint: E-score
Residues (chain): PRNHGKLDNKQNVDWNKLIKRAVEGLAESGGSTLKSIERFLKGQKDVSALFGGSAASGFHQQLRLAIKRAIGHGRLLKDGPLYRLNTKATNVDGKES
ATCTGGCA: 0.154
GAATAGAA: 0.0424
ACAAGAAT: -0.0759
CCCAGGAC: -0.113
ACGTCCCG: 0.00396
CGTTTTAG: -0.0263
GCGTGTTA: -0.0596
AGTGTCAT: -0.107
ATACCATA: -0.0759
AAAGTGCG: 0.0422
ATCGACCG: 0.00402
GCAGAGGC: 0.0804
CCCACTCG: 0.00928
CACACTCA: 0.131
CCGTACGG: -0.0891
AACGCGCA: 0.137
CTACATCC: -0.159
AATGGGCC: -0.115

Sample 4
Target: Fragile X messenger ribonucleoprotein 1, C-terminal low-complexity region (Fmr1, Mus musculus, UniProt P35922)
Method: RNA Bind-n-Seq
Form: RNA
Medium: in vitro
Tested at: 200 nM
Notes: whole 134-nt RNA, ends assumed
With: 150 mM LiCl
Baseline: input library
Reading: higher = stronger binding
Endpoint: log2 enrichment
Library: 7-deaza-guanosine replaces G
All sequences stand within: GGGAGUUCUACAGUCCGACGAUC … UGGAAUUCUCGGGUGUCAAGG
CUCAAGUCCUGUGCUACACAUCGUAUGUACCGAAUCGGGUUGGGUUGGGUUGGAAAGUAUUAUGUUACGCCGUUCGGAUCUGCACUUCCA: -0.136
CGCAGACAACACGCACCCACACAGACACAGAGGGAAGGGGUUGGGAUGGGGACAGGGUGCACAGCAGGGCGGGGUAGGACCCCAGCCCCU: -0.142
CAAGUCCUGUGCUACACAUCGUAUGUACCGAAUCGGGUUUGGGGUUUGGGGUUUGGAAAGUAUUAUGUUACGCCGUUCGGAUCUGCACUU: -1.89
ACCAUGCAGGUGGGCAUCUUUGGGAAGUGGGGCAAGGGGGGGAUAGGGAGGGGGGUAACACUUUGGGAACAGGUGGUCCCAGGUCAUUUC: 1.53
AAGUCCUGUGCUACACAUCGUAUGUACCGAAUCGGGAAAGGGAGGGAAAAAAAGGGAAAGUAUUAUGUUACGCCGUUCGGAUCUGCACUU: 0.105
UUGUGGAAAGGAGGAGAACCCCUGCUGAAAUUCGAGAGGAGUUUGAGCGGCUGCAGAGAGAGAGAGAAGAGAGGAGAUUGCAGCAGCGAA: -0.895
UCAAGUCCUGUGCUACACAUCGUAUGUACCGAAUCGGGCCCGGCCCGGGCCCGGAAAGUAUUAUGUUACGCCGUUCGGAUCUGCACUUCC: -1.39
CUCAAGUCCUGUGCUACACAUCGUAUGUACCGAAUCGGAGGUUUUUUUGGAGGAAAGUAUUAUGUUACGCCGUUCGGAUCUGCACUUCCA: -0.354
GCAGGAAGUAAAAACAAUUGGAAAUGCUUCGGAUAGUGGCAGGGGUGGGGGUUGCUAAGGAAAGGGUGGGAUGGGAGUGGGUAAAGAGUU: 1.54
CACAGUCAACACGCACCCACACAGACACAGAGGGAAGGGGUUGGGAUGGGGACAGGGUGCACAGCAGGGCGGGGUAGGACCCCAGCCCCU: 0.779
UCCUCAAGUCCUGUGCUACACAUCGUAUGUACCGAAUCGGAGGAGGAGGGGAAAGUAUUAUGUUACGCCGUUCGGAUCUGCACUUCCAGC: -1.95

Sample 5
Target: Sal-like protein 4, full length isoform A (SALL4, Homo sapiens, UniProt Q9UJQ4, residues 1-1053)
Chain of UniProt Q9UJQ4 (whole entry, looked up): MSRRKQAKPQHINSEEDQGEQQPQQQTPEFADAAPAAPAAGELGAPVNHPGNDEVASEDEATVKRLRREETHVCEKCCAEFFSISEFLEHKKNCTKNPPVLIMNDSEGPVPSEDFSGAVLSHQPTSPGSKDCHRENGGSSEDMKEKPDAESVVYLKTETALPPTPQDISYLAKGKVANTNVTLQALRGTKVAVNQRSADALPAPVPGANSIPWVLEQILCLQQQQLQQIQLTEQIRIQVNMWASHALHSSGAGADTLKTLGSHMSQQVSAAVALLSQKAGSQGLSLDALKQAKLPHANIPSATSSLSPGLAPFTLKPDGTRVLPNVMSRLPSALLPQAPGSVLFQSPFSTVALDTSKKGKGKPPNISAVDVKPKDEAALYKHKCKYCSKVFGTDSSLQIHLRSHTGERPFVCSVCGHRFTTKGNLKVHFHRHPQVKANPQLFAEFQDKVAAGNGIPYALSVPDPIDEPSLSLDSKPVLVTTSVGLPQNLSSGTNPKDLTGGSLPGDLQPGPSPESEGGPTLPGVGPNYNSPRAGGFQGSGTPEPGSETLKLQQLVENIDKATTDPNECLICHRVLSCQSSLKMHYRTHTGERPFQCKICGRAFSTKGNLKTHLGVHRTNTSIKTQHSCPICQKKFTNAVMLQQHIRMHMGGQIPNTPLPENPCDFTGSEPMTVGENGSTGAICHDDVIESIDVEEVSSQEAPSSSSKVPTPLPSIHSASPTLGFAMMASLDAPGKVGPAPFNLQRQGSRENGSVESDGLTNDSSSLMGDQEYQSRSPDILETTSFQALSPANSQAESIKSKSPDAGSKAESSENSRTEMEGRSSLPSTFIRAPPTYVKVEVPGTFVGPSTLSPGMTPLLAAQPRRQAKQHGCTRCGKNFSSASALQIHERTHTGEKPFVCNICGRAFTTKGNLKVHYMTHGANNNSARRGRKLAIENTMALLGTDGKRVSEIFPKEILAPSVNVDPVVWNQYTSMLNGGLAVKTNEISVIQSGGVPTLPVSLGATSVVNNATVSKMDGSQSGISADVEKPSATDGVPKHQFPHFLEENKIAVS
Method: universal PBM
Form: double-stranded DNA, one strand shown
Medium: in vitro
Tested at: 600 nM
Notes: 8-mer, flanks averaged, mean of replicates
Reading: higher = stronger binding
Endpoint: E-score
ACGTCCCA: -0.18
ACATTTAG: 0.196
AGTAAGAC: -0.0861
CAGCTACA: -0.0132
ACGATGCG: -0.0721
ATAAAAAT: 0.404
CTGCAATA: 0.296
CAACAGAG: -0.0216
AATAAAGG: 0.0799
ATCTGCAT: 0.172
ACAGGCGA: -0.192
AAGTAGCA: 0.0831
CCGGTGCC: -0.36
ACGTCTAT: 0.029
GAGGCCCA: -0.285
CCACAAGA: -0.0348
TAGACCCA: -0.0994
CACGCAAA: -0.0139
CCAGACAG: -0.255
AACGTTTG: 0.0675
CAACGTCC: -0.233

Mixed results
GGGAGUUCUACAGUCCGACGAUCCAGUUUGUAUGUACAUUAUUCAUAUUCCUCUCUGUUGUGUUUCGGGGGGAAAAGACAUUUCCGCCUUUUUUAAAAGUUACUGAUUUAAUUUCAUGUUAUUUGGUUGCAUGAAGUUGCCCUCAACAGAGGAUUGAGCAUCA — bound/input enrichment (RING finger protein unkempt homolog, zinc fingers 1-6, SBP tag (UNK, Homo sapiens, UniProt Q9C0B0, residues 30-357); RNA Bind-n-Seq; RNA, in vitro; 100 nM, RNA with constant flanks, ends assumed; baseline: input RNA pool, higher = stronger binding): 0.448 ratio

A few entries again (sample 5):
AGTAAGAC: -0.0861
CAGCTACA: -0.0132
ACGATGCG: -0.0721
ATAAAAAT: 0.404
CTGCAATA: 0.296
CAACAGAG: -0.0216
AATAAAGG: 0.0799
ATCTGCAT: 0.172
ACAGGCGA: -0.192
AAGTAGCA: 0.0831
CCGGTGCC: -0.36
ACGTCTAT: 0.029
GAGGCCCA: -0.285
CCACAAGA: -0.0348
